{"data": "Literature values that unrelated publications cite", "note": "± marks the error that the study gave."}
{"Molecule": "C[C@H]1O[C@@H](O[C@H]2[C@@H](O)C[C@H](O[C@H]3[C@@H](O)C[C@H](O[C@H]4CC[C@@]5(C)[C@H](CC[C@@H]6[C@@H]5C[C@@H](O)[C@]5(C)[C@@H](C7=CC(=O)OC7)CC[C@]65O)C4)O[C@@H]3C)O[C@@H]2C)C[C@H](O)[C@@H]1O", "cell line": "MDA-MB-231", "assay": "cell viability", "setting": "72 h", "endpoint": "IC50", "value": "310 ± 30 nM"}
{"Molecule": "Z-VAD", "cell line": "primary mesencephalic dopaminergic neurons", "setting": "protection of over 90% neurons, added: MPP+", "endpoint": "concentration for neuroprotection", "value": "> 100 µM"}
{"Molecule": "C/C=C1\\NC(=O)[C@H]2CSSCC/C=C/[C@H](CC(=O)N[C@H](C(C)C)C(=O)N2)OC(=O)[C@H](C(C)C)NC1=O", "cell line": "malignant rhabdoid tumour cells", "assay": "histone acetylation and cell death", "setting": "72 h", "endpoint": "effective concentration", "value": "0.7 to 3.7 nM"}
{"Molecule": "CCCCC/C=C\\C/C=C\\C/C=C\\C/C=C\\CCCC(=O)OC(CO)CO", "cell line": "cultured hippocampal neurons", "assay": "neuronal spiking, inhibitor", "endpoint": "EC50", "value": "63 nM"}
{"Molecule": "[K+]", "cell line": "turkey erythrocytes", "assay": "influx rate", "endpoint": "EC50", "value": "~500000 nM"}
{"Molecule": "CO[C@@H]1CN(C)C(=O)c2ccc(NC(=O)c3ccc(-c4ccccc4)cc3)cc2OC[C@H](C)NC[C@@H]1C", "cell line": "HEK293, HepG2, A549", "assay": "cell proliferation, inhibitor", "endpoint": "AC50", "value": "5 to 18 µM"}
{"Molecule": "C=C(C)[C@@H]1CCC(C)=C[C@H]1c1c(O)cc(CC2CN(C(C)=O)C2)cc1O", "cell line": "hippocampal cultures", "assay": "neuroprotection", "setting": "added: ammonium acetate", "endpoint": "EC50", "value": "50 nM"}
{"Molecule": "CO[C@H]1C[C@H](O[C@H]2CC[C@@]3(C)[C@@H](C2)C[C@@H]2O[C@]24[C@@H]3[C@H](O)C(=O)[C@]2(C)[C@@H](C3=CC(=O)OC3)CC[C@]42O)O[C@@H](C)[C@@H]1O", "cell line": "OVCAR-3", "assay": "cell viability", "setting": "72 h", "endpoint": "IC50", "value": "140 ± 50 nM"}
{"Molecule": "mithramycin", "cell line": "NCI-60 cell lines", "endpoint": "GI50", "value": "18 nM"}
{"Molecule": "YLSGADLNL", "cell line": "CAP1-specific CD8+ T-cell lines", "system": "peptide", "setting": "concentration not given", "how to read": "relative to: native CAP1 peptide, fold enhancement", "endpoint": "T-cell recognition", "value": "> 100 fold"}
{"Molecule": "COc1cc(CCN)c2c(c1OC)SSSSS2", "cell line": "HCT-116", "assay": "cell growth", "setting": "previously reported", "endpoint": "IC90", "value": "150 nM"}
{"Molecule": "C/C(=C\\CCP(=O)(O)O)CO", "cell line": "Vgamma9Vdelta2 T cells in PBMC", "assay": "cell proliferation, activator", "setting": "3 days", "endpoint": "EC50", "value": "4000 nM"}
{"note": "Some of these lines once more:"}
{"Molecule": "C=C(C)[C@@H]1CCC(C)=C[C@H]1c1c(O)cc(CC2CN(C(C)=O)C2)cc1O", "cell line": "hippocampal cultures", "assay": "neuroprotection", "setting": "added: ammonium acetate", "endpoint": "EC50", "value": "50 nM"}
{"Molecule": "CO[C@H]1C[C@H](O[C@H]2CC[C@@]3(C)[C@@H](C2)C[C@@H]2O[C@]24[C@@H]3[C@H](O)C(=O)[C@]2(C)[C@@H](C3=CC(=O)OC3)CC[C@]42O)O[C@@H](C)[C@@H]1O", "cell line": "OVCAR-3", "assay": "cell viability", "setting": "72 h", "endpoint": "IC50", "value": "140 ± 50 nM"}
